Results gathered from unrelated publications.
Numbered parts are unrelated; each lists some results of a single study. Substitutions count along the parent as printed.

Study 1 — target: CCND1, cyclin fold, Cln2 fusion (human); method: yeast growth competition, sequencing; matrix: yeast; notes: strong parent motif; baseline: not given; reading: higher = stronger binding; measurement: normalised enrichment score
Starting sequence: viral docking peptide; YKVKRRLVFGADD; partner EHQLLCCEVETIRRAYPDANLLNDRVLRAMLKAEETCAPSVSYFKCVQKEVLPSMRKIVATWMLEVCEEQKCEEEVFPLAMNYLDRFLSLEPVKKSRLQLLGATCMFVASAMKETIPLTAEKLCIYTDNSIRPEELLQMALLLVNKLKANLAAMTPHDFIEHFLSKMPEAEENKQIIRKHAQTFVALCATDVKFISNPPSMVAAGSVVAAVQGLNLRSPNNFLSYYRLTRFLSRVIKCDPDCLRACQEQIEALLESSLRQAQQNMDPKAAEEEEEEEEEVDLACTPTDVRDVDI
Change = R6K; value = 2.92
Change = D12P; value = 0.934
Change = L7Q; value = -0.407
Change = L7D; value = -0.118

Study 2 — method: DNA-protein interaction ELISA; form: double-stranded DNA, one strand shown; matrix: in vitro, bacterial lysate; concentration: not given; notes: whole dsDNA probe, crude lysate protein; baseline: highest signal in screen; reading: higher = stronger binding; measurement: relative absorbance
Target: Probable WRKY transcription factor 33, C-terminal DNA-binding domain (WRKY33, Arabidopsis thaliana, UniProt Q8S8P5, residues 346-449)
Residues (chain): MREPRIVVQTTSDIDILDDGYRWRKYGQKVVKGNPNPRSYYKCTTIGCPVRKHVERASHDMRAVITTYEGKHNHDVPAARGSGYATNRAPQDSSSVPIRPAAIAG
Oligonucleotide = AAAAAACCGATCATCACATATCACTGAAAA; value = 31.9 % of maximum
Oligonucleotide = AAAAAATGTCGGCTGTTAGGATATCGAAAA; value = 26.9 % of maximum
Oligonucleotide = AAAAAATGGTACTCAGAGTTATAGACAAAA; value = 52.8 % of maximum
Oligonucleotide = AAAAAATTAATCCATGCTTATGTCTGAAAA; value = 47 % of maximum
Oligonucleotide = AAAAAATTTGCTCTTTTGGTTTTCACAAAA; value = 23.9 % of maximum
Oligonucleotide = AAAAAAACGATACGGTATCTAGAAAA; value = 44 % of maximum
Oligonucleotide = AAAAAAGTACGGATGCCCGCGCGTATAAAA; value = 58.1 % of maximum
Oligonucleotide = AAAAAACATTGATAAAATCTCCAGGCAAAA; value = 33.4 % of maximum

Study 3 — read-out: binding; method: phage display NGS; form: peptide; concentration: concentration not given; notes: normalized abundance; baseline: input library; measurement: enrichment fold change
Target: UDP-N-acetylglucosamine--peptide N-acetylglucosaminyltransferase 110 kDa subunit (OGT, Homo sapiens, UniProt O15294)
Sequence of UniProt O15294 (whole entry, looked up): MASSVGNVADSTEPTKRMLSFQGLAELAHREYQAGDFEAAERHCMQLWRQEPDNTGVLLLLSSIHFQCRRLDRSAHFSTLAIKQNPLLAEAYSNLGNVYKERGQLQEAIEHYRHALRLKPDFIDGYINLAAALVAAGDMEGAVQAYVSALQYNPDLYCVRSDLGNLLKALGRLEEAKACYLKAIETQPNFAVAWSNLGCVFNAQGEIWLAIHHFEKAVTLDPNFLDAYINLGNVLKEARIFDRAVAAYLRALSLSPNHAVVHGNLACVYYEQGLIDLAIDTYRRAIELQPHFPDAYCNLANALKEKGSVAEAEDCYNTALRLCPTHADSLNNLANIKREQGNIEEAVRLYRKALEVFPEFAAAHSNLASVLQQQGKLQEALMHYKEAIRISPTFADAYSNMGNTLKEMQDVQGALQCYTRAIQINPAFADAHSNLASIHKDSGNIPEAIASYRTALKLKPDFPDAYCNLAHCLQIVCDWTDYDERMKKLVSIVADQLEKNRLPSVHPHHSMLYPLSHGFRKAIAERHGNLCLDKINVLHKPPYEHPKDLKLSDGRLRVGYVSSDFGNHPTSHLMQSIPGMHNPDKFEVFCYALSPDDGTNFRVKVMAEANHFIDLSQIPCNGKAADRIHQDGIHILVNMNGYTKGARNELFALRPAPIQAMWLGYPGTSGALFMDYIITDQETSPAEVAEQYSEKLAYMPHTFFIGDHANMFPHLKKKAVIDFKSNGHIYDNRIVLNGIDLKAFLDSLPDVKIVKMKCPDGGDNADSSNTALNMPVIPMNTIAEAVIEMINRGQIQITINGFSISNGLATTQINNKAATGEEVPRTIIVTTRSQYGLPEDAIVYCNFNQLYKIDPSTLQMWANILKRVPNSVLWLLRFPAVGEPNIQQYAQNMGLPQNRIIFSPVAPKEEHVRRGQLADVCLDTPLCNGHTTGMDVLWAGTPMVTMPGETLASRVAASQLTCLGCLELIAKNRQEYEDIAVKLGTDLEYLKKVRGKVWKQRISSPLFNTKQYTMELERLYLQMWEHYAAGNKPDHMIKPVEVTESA
Molecule = HIDKHFKHEQYQHDH; value = 8.89
Molecule = STRWFHPSHYHAMFH; value = 10
Molecule = SDDLYAPQYQIFFNA; value = 8.33
Molecule = VQQQFWPMYEIEYDK; value = 18.4

Study 4 — method: RNA Bind-n-Seq; form: RNA; matrix: in vitro; concentration: 365 nM; baseline: no-protein control; reading: higher = stronger binding; measurement: RBNS enrichment (R)
Target: RNA binding protein fox-1 homolog 2, RRM domain, GST-SBP tag (RBFOX2, Homo sapiens, UniProt O43251-10, residues 100-194)
Notes: natural RNA segment, single round, ends assumed
Constant ends, left off below: GGGAGUUCUACAGUCCGACGAUC … UGGAAUUCUCGGGUGCCAA
Oligonucleotide = UUUAUCUUUCUAAAUCAUUUUCUGAAGCUGACUUGCUCUAGGGUGCUUCAUCACCACUUCCAUCUUGCAUCACCUUAUAACUGUUCUGUCUUGUUCUCUCCCAGCAAUUU; value = 0.492
Oligonucleotide = UCCCCCAAGUUAAUCUUCCAUCUUUGUUUUUGGGUUUCAAUGAAGGCUUUACAUAAGAAAUUAUUAAACAAAACAAGGGGGGCAAUAAAUGUAUAUAACAUUAAUAAUGU; value = 0.466
Oligonucleotide = GCCGUGUGUCAAGGAGAUGCCCACUGGGGCUCCAACCGUCUUCAGACACUGUGGAAGUGGGAGGGUAGCCUGGCCCUGUCUAGGAGAAAGGCCCUGCGUGGUCAGGCCUG; value = 0.503
Oligonucleotide = CUAUUGGCACAAGAAGUGGGGCACCCCCCCCCAGAAGGAACCAGAAACUAAGGCUAUCAAGGAGUGAGAUAGAAUGAAGACACUCCUAUUUCUCCUCCAGCCAGGGUUGC; value = 0.724
Oligonucleotide = GGGGUUGGAGGUGCUGGGCAAUGGAACUUCAAAUUCAAUGUCGCCCAGCAGUGAGGGGAGUCGGGAGGUGAGGCCUGUAGGCCAACCAAUUGGUGGAGUCUCAGCGAUAG; value = 0.582
Oligonucleotide = AGGAUGGCUGUUUUCUAUGCUGUAAGUGGUCCUGUCAAUUCUGUGUUUUAUUGAGAGGGAGACAAAUGGAGCUCCAACUAUUUACUCACUUUUGCAUAUAUUAGGUUUCC; value = 0.727
Oligonucleotide = AAGCUUCUAUGGUUGACAUUGUAUAUAUAAUUUUUUAAAAAGGUUUUCUAUAUGGGGAUUUUCUAUUUAUGUAGGUAAUAUUGUUCUAUUUGUAUAUAUUGAGAUAAUUU; value = 1.32
Oligonucleotide = CAUCCCAAACCCACCUCUUGUCUCCAGCCAUGCCCAGGAUCAAUUCUAGAAUCAGAGGCUACCCCUGCCUGUGUGGGGAGGGCCUUUGCUGGCAAGAGAAGCUCAGGCUC; value = 0.397
